Experimental data from different studies.
Parts stem from different laboratories: compare values within a part only. Changes are numbered by the printed parent chain.

Series 1
Target: Histone acetyltransferase KAT6A, winged helix 2, GST fusion (KAT6A, Homo sapiens, UniProt Q92794, residues 85-181)
Method: protein binding microarray
Form: double-stranded DNA, one strand shown
Sample: in vitro
Tested at: not given
Setting: 8-mer, flanks averaged, mean of 2 arrays, mostly near background
Baseline: not given
Reading: higher = stronger binding
Residues (chain): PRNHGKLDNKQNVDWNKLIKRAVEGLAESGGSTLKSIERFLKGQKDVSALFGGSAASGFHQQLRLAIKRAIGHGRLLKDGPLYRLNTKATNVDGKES
| Oligonucleotide | E-score |
| --- | --- |
| AAAAATTA | 0.174 |
| ATCACTTC | -0.0408 |
| CGCCGCAG | 0.143 |
| AGAAACTG | 0.0707 |
| CGGTCCGC | 0.16 |
| ACATGCCT | -0.0948 |
| GTCCGTTA | -0.0513 |
| ACGATTAC | -0.0631 |
| AACTAATC | -0.00161 |
| ATCGGGGC | -0.0518 |
| AGTTTTTA | 0.134 |
| AGAACCAC | -0.0433 |
| ATTGTAGG | 0.0313 |
| ATGCCAGG | 0.135 |
| CCTCACAG | 0.11 |
| CAGCACCC | -0.131 |
| GATCGGAA | -0.0361 |
| ATCACGCC | 0.0593 |
| GAATTGAC | 0.0668 |
| ATGGTGTA | -0.144 |
| AGTGATAG | -0.147 |

Series 2
Target: ABI1, truncated, D143A, DHFR fusion (Arabidopsis thaliana)
Method: DHFR PCA, deep sequencing
Sample: yeast
Setting: methotrexate growth selection, single substitutions
Together with: (+)-ABA 200 µM
Baseline: wild-type fitted maximum
Reading: higher = stronger binding
Starting sequence: PYL1, truncated, DHFR fusion (Arabidopsis thaliana); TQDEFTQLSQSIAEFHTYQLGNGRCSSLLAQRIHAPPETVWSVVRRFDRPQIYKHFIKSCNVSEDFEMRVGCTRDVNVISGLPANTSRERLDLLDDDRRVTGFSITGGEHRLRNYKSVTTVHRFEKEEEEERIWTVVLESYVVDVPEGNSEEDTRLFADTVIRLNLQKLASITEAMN; partner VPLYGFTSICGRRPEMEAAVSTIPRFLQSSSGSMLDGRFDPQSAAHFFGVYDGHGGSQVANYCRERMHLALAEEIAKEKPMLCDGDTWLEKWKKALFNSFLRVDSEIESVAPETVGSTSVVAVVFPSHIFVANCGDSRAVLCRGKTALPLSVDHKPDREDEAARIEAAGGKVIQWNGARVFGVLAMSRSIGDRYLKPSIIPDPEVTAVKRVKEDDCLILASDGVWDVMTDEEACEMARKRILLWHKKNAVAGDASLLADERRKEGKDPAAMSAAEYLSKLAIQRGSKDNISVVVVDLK
| Variant | relative binding score |
| --- | --- |
| K54S | 5.29% |
| P36E | 93.5% |
| Y53A | 48.9% |
| S140T | 3.59% |
| C72P | 16.6% |
| R132T | 113% |
| S11L | 88.2% |
| V118L | 84% |
| I79W | 103% |
| G23L | 86.8% |
| N177C | 101% |
| A175M | 95.9% |
| Q167S | 99% |
| F103A | 0.666% |
| D65C | 96.4% |
| S9F | 85.6% |
| R123Q | 108% |
| S171K | 101% |
| E125V | 103% |
| V137Y | -14.4% |
| K58V | 80.8% |
| M68R | 79.5% |
| R46G | 74.1% |
| T73W | 96.2% |
| L93H | 99.3% |

Series 3
Target: Interferon regulatory factor 7, full length, phosphomimetic (IRF7, Homo sapiens, UniProt Q92985, residues 1-503, S101K/S471D/S472D/S475D/S476D/S477D/S483D/S484D/S487D)
Method: protein-binding microarray
Form: double-stranded DNA, one strand shown
Sample: in vitro
Tested at: 250 nM
Setting: 60-bp whole probe
Together with: salmon DNA 0.4 mg/ml
Baseline: random background probes
Reading: higher = stronger binding
Shared flanks, not repeated: GCCTAGCAC … GTCTTGATTCGCTTGACGCTGCTG
Target sequence (chain): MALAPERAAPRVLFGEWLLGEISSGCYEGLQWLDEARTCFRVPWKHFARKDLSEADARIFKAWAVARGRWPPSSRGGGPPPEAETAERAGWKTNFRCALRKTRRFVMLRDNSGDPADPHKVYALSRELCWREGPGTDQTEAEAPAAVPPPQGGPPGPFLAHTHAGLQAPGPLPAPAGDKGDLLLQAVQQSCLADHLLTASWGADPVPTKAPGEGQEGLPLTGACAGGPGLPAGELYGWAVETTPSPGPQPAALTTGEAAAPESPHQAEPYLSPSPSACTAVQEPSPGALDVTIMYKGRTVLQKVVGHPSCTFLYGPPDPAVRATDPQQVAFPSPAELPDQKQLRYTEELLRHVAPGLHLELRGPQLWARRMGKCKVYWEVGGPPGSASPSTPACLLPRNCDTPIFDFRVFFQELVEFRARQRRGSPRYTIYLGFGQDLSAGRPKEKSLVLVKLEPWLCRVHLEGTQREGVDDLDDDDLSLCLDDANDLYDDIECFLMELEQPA
| Oligonucleotide | log fluorescence |
| --- | --- |
| TCAGAATTCAGAATGGGACTGTGCTAG | -0.104 z-score |
| GACGGACTGTACTATCGGGACGTGCTA | -0.399 z-score |
| GACGGTATCGGTTTCGAGACGTGCTAG | 7.15 z-score |
| GCCGGTCTCCTTTTCCTGACGTGCTAG | 1.57 z-score |
| TCAGCCCTCCCTGTGGGACTGTGCTAG | -0.585 z-score |
| GACGAGCTGAGACTGGAGACGTGCTAG | -0.745 z-score |
| GACGGACTGCTTCTCTTGACGTGCTAG | -0.404 z-score |
| TTAGATCTCATTTTCGATTAGTGCTAG | 3.34 z-score |
| AGCAAAAATGATTGGTTGAAGTGCTAG | -0.699 z-score |
| TCAGTTTTTGCTTTCTTACTGTGCTAG | 1.2 z-score |
| CTAACTTTCCAATTGTCCTTGTGCTAG | 2.34 z-score |
| CAGAATTTACTTTCTACGTCGTGCTAG | 0.364 z-score |
| GACGGAATCGGTCTCGGGACGTGCTAG | 0.374 z-score |
| TTAGGTTTCAGTTCCGATTAGTGCTAG | 4.24 z-score |
| CTTGCTACACATCTCACTCTGTGCTAG | -0.262 z-score |
| GACGAGCTGGGGTATCGAGACGTGCTA | -0.702 z-score |
| TTGTGTCTGGGATTTTGTCCGTGCTAG | -1.07 z-score |
| GGCGAACTGAGTATCGAGACGTGCTAG | -0.465 z-score |
| TAGATATTATATCTGTGTTAGTGCTAG | 0.547 z-score |

Series 4
Target: CCNA1, cyclin fold, Cln2 fusion (human)
Method: yeast growth competition, sequencing
Sample: yeast
Setting: weak parent motif
Baseline: not given
Reading: higher = stronger binding
Starting sequence: ORC1 docking peptide (human); PRARKRLELGNLG
| Variant | normalised enrichment score |
| --- | --- |
| G13T | 0.247 |
| G10F | 0.372 |
| R6H | 0.381 |
| L12Q | 0.379 |
| L7Q | 0.423 |
| L12N | 0.498 |
| L7V | -0.0674 |
| R2Y | 0.227 |
| E8L | 0.254 |
| L7W | 0.373 |
| P1Y | 0.526 |
| P1M | 0.0442 |
| N11P | 0.576 |
| R4E | 0.433 |
| K5N | 0.205 |
| L7I | 0.509 |
| R4W | 0.112 |
| A3D | 0.312 |
| E8D | 0.681 |
| K5F | 0.309 |

Excerpt of the above (series 3):
| Oligonucleotide | log fluorescence |
| --- | --- |
| TCAGCCCTCCCTGTGGGACTGTGCTAG | -0.585 z-score |
| GCCGGTCTCCTTTTCCTGACGTGCTAG | 1.57 z-score |
| CTAACTTTCCAATTGTCCTTGTGCTAG | 2.34 z-score |
| TTAGATCTCATTTTCGATTAGTGCTAG | 3.34 z-score |
| TTGTGTCTGGGATTTTGTCCGTGCTAG | -1.07 z-score |
| CTTGCTACACATCTCACTCTGTGCTAG | -0.262 z-score |
| TCAGTTTTTGCTTTCTTACTGTGCTAG | 1.2 z-score |
| TCAGAATTCAGAATGGGACTGTGCTAG | -0.104 z-score |
| GGCGAACTGAGTATCGAGACGTGCTAG | -0.465 z-score |
| CAGAATTTACTTTCTACGTCGTGCTAG | 0.364 z-score |
| TAGATATTATATCTGTGTTAGTGCTAG | 0.547 z-score |
| AGCAAAAATGATTGGTTGAAGTGCTAG | -0.699 z-score |
| GACGGAATCGGTCTCGGGACGTGCTAG | 0.374 z-score |
